Published values of several laboratories.
Each numbered part is a random draw from the data of one study; scales do not carry over between parts.

Sample 1
Target: Prothrombin, mature alpha-thrombin (F2, Homo sapiens, UniProt P00734)
Method: aptamer microarray, sandwich
Molecule type: DNA with 2'F-ANA
Matrix: in vitro
Tested at: 200 nM
Notes: whole 15-mer aptamer, many near background
Together with: Cy3 exosite-II aptamer, 400 nM
Reading: higher = stronger binding
Endpoint: mean fluorescence intensity
Oligonucleotide: GGTTGGTGTGGTTGG
2'F-ANA at 1 3 4 8 9 10 11 12 13 15: 69.9 a.u.
2'F-ANA at 1 4 5 6 9 10 11 13 15: 48.9 a.u.
2'F-ANA at 4 8 10 12 14 15: 56.9 a.u.
2'F-ANA at 5 8 9 10 11 15: 49.8 a.u.
2'F-ANA at 1 4 6 9 13: 68.7 a.u.
2'F-ANA at 2 3 4 6 8 9 10 11 13 14 15: 137 a.u.
2'F-ANA at 2 3 4 6 8 9 12 13: 546 a.u.
2'F-ANA at 1 3 7 8 10 13 14: 69.1 a.u.
2'F-ANA at 2 4 5 6 9 10 14: 45.5 a.u.
2'F-ANA at 1 2 3 4 6 7 8 10 12 13 15: 60.6 a.u.
2'F-ANA at 7 8 10 13 15: 192 a.u.
2'F-ANA at 5 9 10 13 14 15: 44.9 a.u.
2'F-ANA at 2 6 7 10 14: 89.5 a.u.
2'F-ANA at 4 7 11 12 13: 380 a.u.
2'F-ANA at 3 4 5 7 12 14: 56.1 a.u.
2'F-ANA at 2 5 6 9: 93.2 a.u.
2'F-ANA at 1 3 4 6 8 10 11 14: 49.3 a.u.
2'F-ANA at 1 5 10 11: 47.9 a.u.
2'F-ANA at 2 3 5 6 9 12 14: 51.9 a.u.
2'F-ANA at 2 5 7 11 12 13 14: 46.4 a.u.
2'F-ANA at 1 3 5 6 8 10 11 12 13: 50.6 a.u.
2'F-ANA at 1 2 3 4 6 8 9 10 12 14 15: 52.9 a.u.
2'F-ANA at 2 7 8 10 11 14 15: 77 a.u.
2'F-ANA at 1 2 3 4 5 6 9 10 12 13: 49.6 a.u.
2'F-ANA at 2 3 4 5 10 12 13 15: 51.8 a.u.

Sample 2
Target: Histone acetyltransferase KAT6A, both winged helices, GST fusion (KAT6A, Homo sapiens, UniProt Q92794, residues 1-181)
Method: protein binding microarray
Molecule type: double-stranded DNA, one strand shown
Matrix: in vitro
Tested at: not given
Notes: 8-mer, flanks averaged, mean of 2 arrays, mostly near background
Baseline: not given
Reading: higher = stronger binding
Endpoint: E-score
Construct (chain): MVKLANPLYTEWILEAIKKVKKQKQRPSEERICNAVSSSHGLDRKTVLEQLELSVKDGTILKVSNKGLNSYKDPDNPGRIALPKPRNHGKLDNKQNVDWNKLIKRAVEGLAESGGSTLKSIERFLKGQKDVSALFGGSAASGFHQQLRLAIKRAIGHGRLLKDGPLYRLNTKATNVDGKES
CTTTTTTA: -0.0905
CGGAGTAA: 0.0765
CACGAACG: 0.0104
CTTCGTAC: -0.00819
GACATCAA: -0.1
GCAGACGA: -0.0127
CTTGAGTC: -0.109
GAATATAC: 0.0425
CATGTTGA: 0.0562
ACATAGGG: -0.241
AGTTCTGG: -0.169
AGAACCCA: -0.306
CCTTCAAC: -0.231
CAGCGATG: 0.00517
ATGACAAA: -0.122
TCAAGCAA: -0.0701
CTACGGAG: 0.146
CCGAGCGG: 0.279
AATTGCAA: 0.000835
GCAGTTGA: -0.0816
CTCAGGAG: -0.195
ACTGCGGC: 0.111
ATTCGAGA: -0.106
GATGTAAA: 0.0174

Sample 3
Target: Interferon regulatory factor 5, full length, phosphomimetic (IRF5, Homo sapiens, UniProt Q13568-2, residues 1-514, K96S/S451D/S453D/S456D/S462D)
Method: protein-binding microarray
Molecule type: double-stranded DNA, one strand shown
Matrix: in vitro
Tested at: 250 nM
Notes: 60-bp whole probe
Together with: salmon DNA 0.4 mg/ml
Baseline: random background probes
Reading: higher = stronger binding
Endpoint: log fluorescence
Shared flanks, not repeated: GCCTAGCAC … GTCTTGATTCGCTTGACGCTGCTG
TTAGGTCTCGGTATCGGTGAGTGCTAG: 2.95 z-score
GACGGTTCCCTTTTCCTGCCGTGCTAG: 0.049 z-score
GCCGGTCTCCTTATCCTGACGTGCTAG: -0.278 z-score
AGTTTTCTCATTCGTCATTTCGTGCTA: 2.25 z-score
TTAGGACTGGGGTATCCGTTAGTGCTA: -0.333 z-score
TTAGGTATCCTTATCCTTTGGTGCTAG: 0.09 z-score
TTAGGTACCCTACTGCTTTAGTGCTAG: -0.44 z-score
TTTGATATCAGTATCGATTAGTGCTAG: 8.37 z-score
GCTTTTTCCCCCCTCACGCAGTGCTAG: 0.577 z-score
GACGATTCCAGTTGCGAGACGTGCTAG: 0.236 z-score
TCAGCTTACAATATAAAACTGTGCTAG: 0.717 z-score
TCATTTTCGTTTTTATTACTGTGCTAG: 7.71 z-score
TCACCTTGGAAGTATGACACTGTGCTA: -0.331 z-score
TTACGTCTCGGTATCGGTTAGTGCTAG: 5.93 z-score
TTTGCTTTAGTCATTCACTGAGTGCTA: 0.602 z-score
GACGGTATCGGTCTCGGGCCGTGCTAG: 5.3 z-score
GAACCTTGGGCTCTAGGTTCGTGCTAG: -0.381 z-score
TCATACATCTATGTAGAACTGTGCTAG: 0.443 z-score
TTTGGTTTCCTTTCCCTTTAGTGCTAG: 2.59 z-score
GACGCTATCCTTCTCCTGACGTGCTAG: 0.237 z-score
TTAGATCCCAGTCTCGATTAGTGCTAG: 0.445 z-score
TCACGTTTACATTTTCCACTGTGCTAG: 0.862 z-score
TCAGACCTCGTCTCTATCACTGTGCTA: 0.465 z-score

Sample 4
Target: RNA binding protein fox-1 homolog 2, RRM domain, GST-SBP tag (RBFOX2, Homo sapiens, UniProt O43251-10, residues 100-194)
Method: RNA Bind-n-Seq
Molecule type: RNA
Matrix: in vitro
Tested at: 365 nM
Notes: natural RNA segment, single round, ends assumed
Baseline: no-protein control
Reading: higher = stronger binding
Endpoint: RBNS enrichment (R)
Shared flanks, not repeated: GGGAGUUCUACAGUCCGACGAUC … UGGAAUUCUCGGGUGCCAA
Construct (chain): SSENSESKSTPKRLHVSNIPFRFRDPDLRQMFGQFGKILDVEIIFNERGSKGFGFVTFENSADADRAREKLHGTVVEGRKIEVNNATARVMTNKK
UGUAGUCCAGAACUGGGGAGGCCAGGAGAGCCGUUACUCACUCCAUGGCUCUCAGACCGCGUUCCUCUUUGGCCUUCCUUCCAGCCGAGCCGUCACCAUAAGUAAAUCAA: 0.304
UACACAGCCCUCUUUCCGUUGUCCCUGGAAUGAUACUGGCCAGAAGCUGGAGAAUAAACAGGUACUGUGAUUGCUGGAAUAUUUCUGCAUAUACCUGAAGGUUAACACUC: 0.458
UAAAACAAACAAACAAACAAACAGUUUUCAGAAGUUCUUAAGGCAAGAGUGAAUUUCUGUGGAUUUUACUGGUCCCAGCUUUAGGUUCUUUACGACACUAACAGGACUGC: 0.56
UACUUACUUAUUACCUAGAUUUUAAAUAGACAAUCCAAAGUCUCCCCUUCGUGUUGCCAUCAUCUUGUUGAAUCAGCCAUUUUAUCGAGGCACGUGAUCAGUGUUGCAAC: 0.489
GGUGCGGGAAGAAAUGGCCUUUAAUUACUGAUUGUAUUUGGUACAUAUUGUGUGAUACUUGAAGAGAUAAAAGGGACUUACCAGCCCUUAAUUGAAAUCUAAGCUUUUUA: 0.433
CUCAUAAUUCUUAACACCUGGCAUUUCCAUUUCUAAAGAUGGACAGGCCCUUUGGCGUGGUACCAACCAGAUAAUGACUGCAUCAGGAUGAAAGCUGCUGAACUCGGCAU: 0.272
CUGGCUCUCCAUUUCUGGCCUCAGUUGUCUACAGGACAGUGGUCAGGGAUGCCUGGAGGCAUAUAUCCAGCUGCCACCAAGGGGCACUGUUUGUUCCCACUUAUGUGAGU: 0.258
AGUGACUGUGGUCUCAGUGCUGGGAGCCCAGGAGGAACCGUCAUGCCUUACCUCCUUCUAAUGGGUAAAGGGGCUUUCUUAUCAAGCAUGUCUGACAUCCCUGGAGAGGC: 2.53
AAGCUUUUGAUGGAAAAUAUGUGGGUGGAUAGUAUAUUUCUAUGGGUGGGUCUAAUUUGGUAACGGUUUGAUUGUGCCUGGUUUUAUCACCUGUUCAGAUGAGAAGAUUU: 1.69
AUCUGCACAAUUCAGUUUCAGCUCUGGAUUACUUCAGUUGACCUUUGUGAAGGUUUUUAUCUGUGUAGAAUGGGUGUUUGACUUGUUUUAGCCUAUUAAAUUUUUAUUUU: 0.85
GAGCUUUCAUGCUCAGUUGGAAUCUAAUGAAAUAAAUUCUCUUAGCAUACAUUGUAAAUUUGUAUUGUUUUAAAUACAGUAUUGUUUGCUGAAGCAUUGUAAUCAAGUUU: 0.379
CUUAUCCCAGCUUUACAAAAACUCUUCAUGUGAAUCUUAACUUGCAAAAGGAGAAAGAUAAAAUACAGAAGACUGGCCCCAGAGAGACCUCAGAUCAGUAUUGUGCAUUG: 0.435

A few entries again (sample 3):
TCACCTTGGAAGTATGACACTGTGCTA: -0.331 z-score
TTAGGTACCCTACTGCTTTAGTGCTAG: -0.44 z-score
TTTGCTTTAGTCATTCACTGAGTGCTA: 0.602 z-score
GCTTTTTCCCCCCTCACGCAGTGCTAG: 0.577 z-score
TTAGGTATCCTTATCCTTTGGTGCTAG: 0.09 z-score
TTAGATCCCAGTCTCGATTAGTGCTAG: 0.445 z-score
TTAGGTCTCGGTATCGGTGAGTGCTAG: 2.95 z-score
TCAGACCTCGTCTCTATCACTGTGCTA: 0.465 z-score
TTTGATATCAGTATCGATTAGTGCTAG: 8.37 z-score
TTTGGTTTCCTTTCCCTTTAGTGCTAG: 2.59 z-score
GACGGTATCGGTCTCGGGCCGTGCTAG: 5.3 z-score
GACGGTTCCCTTTTCCTGCCGTGCTAG: 0.049 z-score
